{"data": "Results from different studies", "note": "Parts stem from different laboratories: compare values within a part only.", "UniProt P54753, sequence (whole entry, looked up)": "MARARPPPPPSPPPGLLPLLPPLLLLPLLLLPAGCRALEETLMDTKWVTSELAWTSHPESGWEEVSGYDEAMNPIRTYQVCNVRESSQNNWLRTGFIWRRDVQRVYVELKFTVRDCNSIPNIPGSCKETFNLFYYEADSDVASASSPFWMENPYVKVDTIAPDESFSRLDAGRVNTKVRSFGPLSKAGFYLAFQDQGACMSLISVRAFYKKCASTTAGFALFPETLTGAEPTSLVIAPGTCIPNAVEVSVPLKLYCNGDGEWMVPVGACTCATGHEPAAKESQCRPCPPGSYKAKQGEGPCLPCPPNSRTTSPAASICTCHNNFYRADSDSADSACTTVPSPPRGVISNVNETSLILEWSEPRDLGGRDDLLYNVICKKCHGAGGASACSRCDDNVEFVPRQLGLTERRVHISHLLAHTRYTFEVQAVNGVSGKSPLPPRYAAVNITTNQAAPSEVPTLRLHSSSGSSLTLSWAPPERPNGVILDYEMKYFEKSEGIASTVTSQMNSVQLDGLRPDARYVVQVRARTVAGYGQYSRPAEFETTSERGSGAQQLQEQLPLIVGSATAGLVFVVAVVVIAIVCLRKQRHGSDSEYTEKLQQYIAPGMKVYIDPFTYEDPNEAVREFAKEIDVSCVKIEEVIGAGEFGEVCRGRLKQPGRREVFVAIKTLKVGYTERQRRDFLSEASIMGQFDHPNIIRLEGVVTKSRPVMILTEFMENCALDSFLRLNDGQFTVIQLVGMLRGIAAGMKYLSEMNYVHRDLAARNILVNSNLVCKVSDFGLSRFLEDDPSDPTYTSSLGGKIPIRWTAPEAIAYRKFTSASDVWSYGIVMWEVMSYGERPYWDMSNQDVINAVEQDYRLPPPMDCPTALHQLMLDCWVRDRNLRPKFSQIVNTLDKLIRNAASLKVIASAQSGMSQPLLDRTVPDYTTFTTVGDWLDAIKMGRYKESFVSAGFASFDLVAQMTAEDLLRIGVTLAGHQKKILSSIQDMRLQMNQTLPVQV", "UniProt P08069, sequence (whole entry, looked up)": "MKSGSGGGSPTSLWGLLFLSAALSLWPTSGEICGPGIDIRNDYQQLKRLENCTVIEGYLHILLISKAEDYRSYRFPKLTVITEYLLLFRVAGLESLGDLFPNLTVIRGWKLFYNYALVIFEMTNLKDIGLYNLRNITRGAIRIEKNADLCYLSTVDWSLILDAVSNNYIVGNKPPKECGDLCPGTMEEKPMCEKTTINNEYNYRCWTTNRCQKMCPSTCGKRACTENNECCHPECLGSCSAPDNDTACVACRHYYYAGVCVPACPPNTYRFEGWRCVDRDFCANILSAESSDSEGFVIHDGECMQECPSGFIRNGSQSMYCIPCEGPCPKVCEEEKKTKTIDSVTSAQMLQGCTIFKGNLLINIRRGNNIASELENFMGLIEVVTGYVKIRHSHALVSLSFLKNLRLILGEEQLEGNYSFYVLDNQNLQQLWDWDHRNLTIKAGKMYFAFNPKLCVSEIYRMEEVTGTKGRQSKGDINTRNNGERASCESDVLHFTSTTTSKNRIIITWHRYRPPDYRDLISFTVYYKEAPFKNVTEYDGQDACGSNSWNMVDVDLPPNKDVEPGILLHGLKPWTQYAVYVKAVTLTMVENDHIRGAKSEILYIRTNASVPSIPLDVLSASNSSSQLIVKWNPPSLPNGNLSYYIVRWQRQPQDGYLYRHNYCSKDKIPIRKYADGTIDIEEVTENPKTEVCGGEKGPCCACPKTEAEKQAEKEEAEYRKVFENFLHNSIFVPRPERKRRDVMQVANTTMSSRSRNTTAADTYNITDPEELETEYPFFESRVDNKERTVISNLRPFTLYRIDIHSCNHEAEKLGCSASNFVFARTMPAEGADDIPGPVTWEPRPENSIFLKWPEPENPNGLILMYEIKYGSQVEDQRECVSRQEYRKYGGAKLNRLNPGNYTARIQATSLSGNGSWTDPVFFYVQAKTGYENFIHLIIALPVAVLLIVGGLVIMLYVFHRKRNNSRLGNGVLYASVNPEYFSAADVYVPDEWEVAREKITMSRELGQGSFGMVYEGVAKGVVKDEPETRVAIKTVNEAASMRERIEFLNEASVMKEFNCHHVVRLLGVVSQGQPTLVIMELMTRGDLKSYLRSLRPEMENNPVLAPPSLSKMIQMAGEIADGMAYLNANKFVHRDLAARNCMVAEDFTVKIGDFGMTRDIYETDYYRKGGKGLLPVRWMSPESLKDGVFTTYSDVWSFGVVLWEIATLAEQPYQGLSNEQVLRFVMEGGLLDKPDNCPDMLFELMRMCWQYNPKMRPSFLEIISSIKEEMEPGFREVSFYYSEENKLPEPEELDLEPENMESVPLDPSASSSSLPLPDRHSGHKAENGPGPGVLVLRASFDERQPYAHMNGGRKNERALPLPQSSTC", "UniProt Q9UBF8, sequence (whole entry, looked up)": "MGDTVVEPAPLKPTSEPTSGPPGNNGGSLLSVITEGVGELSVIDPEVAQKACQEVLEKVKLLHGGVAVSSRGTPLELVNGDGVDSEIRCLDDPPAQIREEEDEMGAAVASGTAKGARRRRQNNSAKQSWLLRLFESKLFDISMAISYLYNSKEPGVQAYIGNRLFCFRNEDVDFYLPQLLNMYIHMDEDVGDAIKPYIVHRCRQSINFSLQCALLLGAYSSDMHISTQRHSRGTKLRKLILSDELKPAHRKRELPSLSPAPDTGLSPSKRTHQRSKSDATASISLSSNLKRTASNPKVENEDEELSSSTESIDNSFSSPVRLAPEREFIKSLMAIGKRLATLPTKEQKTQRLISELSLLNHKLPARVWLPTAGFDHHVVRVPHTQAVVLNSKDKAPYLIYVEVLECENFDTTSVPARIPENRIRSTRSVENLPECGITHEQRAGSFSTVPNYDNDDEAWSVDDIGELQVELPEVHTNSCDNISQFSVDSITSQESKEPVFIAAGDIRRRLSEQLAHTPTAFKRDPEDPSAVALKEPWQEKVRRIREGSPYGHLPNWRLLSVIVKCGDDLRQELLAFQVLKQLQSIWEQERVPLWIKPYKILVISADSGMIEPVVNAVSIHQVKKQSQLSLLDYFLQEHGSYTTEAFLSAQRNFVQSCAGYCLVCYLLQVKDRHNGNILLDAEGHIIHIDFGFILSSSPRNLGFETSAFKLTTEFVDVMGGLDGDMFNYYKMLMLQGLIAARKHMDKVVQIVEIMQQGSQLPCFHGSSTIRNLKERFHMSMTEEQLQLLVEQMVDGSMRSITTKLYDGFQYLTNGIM", "UniProt Q9NY57, sequence (whole entry, looked up)": "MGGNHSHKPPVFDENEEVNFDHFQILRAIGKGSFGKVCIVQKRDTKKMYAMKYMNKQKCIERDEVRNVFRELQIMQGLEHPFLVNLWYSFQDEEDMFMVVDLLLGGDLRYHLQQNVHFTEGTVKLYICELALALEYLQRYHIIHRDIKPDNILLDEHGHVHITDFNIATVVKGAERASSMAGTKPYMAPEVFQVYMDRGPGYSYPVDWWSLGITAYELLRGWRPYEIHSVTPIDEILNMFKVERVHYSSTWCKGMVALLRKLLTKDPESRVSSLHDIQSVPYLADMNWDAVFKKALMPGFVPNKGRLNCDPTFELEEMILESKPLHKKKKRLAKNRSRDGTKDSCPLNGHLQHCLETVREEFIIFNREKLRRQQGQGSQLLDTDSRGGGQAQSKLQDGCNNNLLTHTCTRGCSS", "UniProt P0C264, sequence (whole entry, looked up)": "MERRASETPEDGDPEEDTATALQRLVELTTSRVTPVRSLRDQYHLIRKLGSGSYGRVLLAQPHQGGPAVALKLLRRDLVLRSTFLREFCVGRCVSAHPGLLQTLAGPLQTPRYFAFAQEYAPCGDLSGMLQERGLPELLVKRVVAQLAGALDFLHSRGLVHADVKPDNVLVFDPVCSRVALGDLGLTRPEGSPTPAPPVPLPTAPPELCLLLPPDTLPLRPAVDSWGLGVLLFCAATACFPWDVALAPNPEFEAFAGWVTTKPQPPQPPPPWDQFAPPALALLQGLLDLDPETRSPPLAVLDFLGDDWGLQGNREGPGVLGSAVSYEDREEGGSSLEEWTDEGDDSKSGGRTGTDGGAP"}
{"data": "Study 1", "organism": "Sarcocystis neurona", "effect on": "parasite growth", "concentration": "10 µM"}
{"Compound": "CC(N)C12CC3CC(CC(C3)C1)C2 (stereo not shown)", "inhibition [%]": -23.5}
{"Compound": "CCc1c(C)[nH]c2c1C(=O)C(CN1CCOCC1)CC2 (stereo not shown)", "inhibition [%]": -25.7}
{"Compound": "C/C=C1\\[C@H]2C=C(C)C[C@]1(N)c1ccc(=O)[nH]c1C2", "inhibition [%]": -23}
{"Compound": "C[C@H](CCC(=O)O)[C@H]1CC[C@H]2[C@@H]3[C@@H](O)C[C@@H]4C[C@H](O)CC[C@]4(C)[C@H]3CC[C@]12C", "inhibition [%]": -26.3}
{"Compound": "CO[C@H]1O[C@@H]2O[C@@]3(C)CC[C@H]4[C@H](C)CC[C@@H]([C@H]1C)[C@@]24OO3", "inhibition [%]": 62}
{"Compound": "COc1ccc2c3c1O[C@H]1C[C@@H](O)C=C[C@@]31CCN(C)C2", "inhibition [%]": -22.2}
{"Compound": "COc1cc(C[C@@H](CO)[C@H](CO)Cc2ccc(O)c(OC)c2)ccc1O", "inhibition [%]": -23.6}
{"Compound": "CSc1ccc2c(c1)N(CCC1CCCCN1C)c1ccccc1S2 (stereo not shown)", "inhibition [%]": 37.7}
{"Compound": "O=c1[nH]c(=O)n(C2CCCO2)cc1F (stereo not shown)", "inhibition [%]": 4.5}
{"Compound": "O=c1ncc(F)c[nH]1", "inhibition [%]": 20.3}
{"Compound": "CC(C)C(=O)Nc1ccc([N+](=O)[O-])c(C(F)(F)F)c1", "inhibition [%]": -28.6}
{"data": "Study 2", "species": "mouse", "medium": "microsomes or S9", "concentration": "2 µM", "time": "0.5 h"}
{"SMILES": "O=C(Nc1cccc(F)c1)C1CC(=O)N(Cc2ccccn2)c2nc3ccccc3n21 (stereo not shown)", "remaining compound": "30.5%"}
{"SMILES": "Cc1cnc(NC2CC(C)OC(C)C2)nc1NC1CC(C)OC(C)C1 (stereo not shown)", "remaining compound": "98.2%"}
{"SMILES": "CCCn1c(=O)oc2cc(NC(=O)Nc3ccccc3OCC)ccc21", "remaining compound": "7.06%"}
{"SMILES": "CCCc1ccc(-c2ccc(/C=C/C(=O)O)cc2)nc1", "remaining compound": "18.1%"}
{"SMILES": "CC1CCN2c3cc(Cl)ccc3CC3(C(=O)OC(C)(C)OC3=O)C2C1 (stereo not shown)", "remaining compound": "> 100%"}
{"SMILES": "COc1cc(-c2nc3ncccn3c2NC2CCCC2)cc(OC)c1OC", "remaining compound": "1.55%"}
{"SMILES": "CCN(CC)C(=O)c1cn(C2CCC23CCN(S(=O)(=O)CC)CC3)nn1 (stereo not shown)", "remaining compound": "65.8%"}
{"SMILES": "C=CCc1c(C)nc2c(-c3ccccc3)cnn2c1NCCCn1ccnc1", "remaining compound": "63.3%"}
{"SMILES": "O=C(O)CCC(=O)N1N=C(c2nn(-c3ccccc3)cc2-c2ccccc2)CC1c1cccs1 (stereo not shown)", "remaining compound": "99.2%"}
{"SMILES": "CC(C)(C)Nc1oc(-c2ccc(S(=O)(=O)N3CCOCC3)o2)nc1C#N", "remaining compound": "95.6%"}
{"SMILES": "CCNC(=O)N1CCC(CCOC)(NC(=O)NCC2CCCO2)CC1 (stereo not shown)", "remaining compound": "> 100%"}
{"SMILES": "COc1ccc(CCN2CCC(CNS(=O)(=O)c3ccc(-c4ccc(=O)[nH]n4)s3)CC2)cc1", "remaining compound": "66.1%"}
{"data": "Study 3", "SMILES": "Cc1nc(N2CC[C@@H](O)C2)ncc1-c1cc(C(F)(F)F)cc2[nH]ncc12", "method": "competition with immobilised ligand", "concentration": "1 µM"}
{"target": "Receptor-type tyrosine-protein kinase FLT3, autoinhibited (FLT3, Homo sapiens, UniProt P36888)", "effect on": "binding", "remaining binding": "87%"}
{"target": "FLT3 (Homo sapiens, UniProt P36888)", "effect on": "binding", "remaining binding": "67%"}
{"target": "STK32B (Homo sapiens, UniProt Q9NY57)", "effect on": "binding", "remaining binding": "100%"}
{"target": "Non-receptor tyrosine-protein kinase TYK2, JH1 (TYK2, Homo sapiens, UniProt P29597)", "effect on": "binding", "remaining binding": "58%"}
{"target": "BMPR1A (Homo sapiens, UniProt P36894)", "effect on": "binding", "remaining binding": "100%"}
{"target": "GSK3A (Homo sapiens, UniProt P49840)", "effect on": "cell-free assay", "remaining binding": "54%"}
{"target": "EPHB3 (Homo sapiens, UniProt P54753)", "effect on": "cell-free assay", "remaining binding": "100%"}
{"target": "GAK (Homo sapiens, UniProt O14976)", "effect on": "binding", "remaining binding": "83%"}
{"target": "HIPK1 (Homo sapiens, UniProt Q86Z02)", "effect on": "binding", "remaining binding": "74%"}
{"target": "RPS6KA3 (Homo sapiens, UniProt P51812)", "effect on": "binding", "remaining binding": "48%"}
{"target": "PIP5K1A (Homo sapiens, UniProt Q99755)", "effect on": "cell-free assay", "remaining binding": "86%"}
{"target": "SBK3 (Homo sapiens, UniProt P0C264)", "effect on": "binding", "remaining binding": "100%"}
{"target": "TBK1 (Homo sapiens, UniProt Q9UHD2)", "effect on": "binding", "remaining binding": "82%"}
{"target": "PRKACA (Homo sapiens, UniProt P17612)", "effect on": "cell-free assay", "remaining binding": "83%"}
{"target": "MAPK15 (Homo sapiens, UniProt Q8TD08)", "effect on": "binding", "remaining binding": "86%"}
{"target": "Tyrosine-protein kinase ABL1, phosphorylated (ABL1, Homo sapiens, UniProt P00519, Y253F)", "effect on": "binding", "remaining binding": "70%"}
{"target": "SIK3 (Homo sapiens, UniProt Q9Y2K2)", "effect on": "binding", "remaining binding": "53%"}
{"target": "PI4KB (Homo sapiens, UniProt Q9UBF8)", "effect on": "cell-free assay", "remaining binding": "53%"}
{"target": "LATS1 (Homo sapiens, UniProt O95835)", "effect on": "binding", "remaining binding": "81%"}
{"target": "IGF1R (Homo sapiens, UniProt P08069)", "effect on": "cell-free assay", "remaining binding": "100%"}
{"target": "PLK4 (Homo sapiens, UniProt O00444)", "effect on": "binding", "remaining binding": "93%"}
{"target": "PAK5 (Homo sapiens, UniProt Q9P286)", "effect on": "cell-free assay", "remaining binding": "99%"}
{"target": "EPHA2 (Homo sapiens, UniProt P29317)", "effect on": "cell-free assay", "remaining binding": "100%"}
{"target": "PTK2B (Homo sapiens, UniProt Q14289)", "effect on": "cell-free assay", "remaining binding": "100%"}
{"target": "HIPK3 (Homo sapiens, UniProt Q9H422)", "effect on": "binding", "remaining binding": "54%"}
{"data": "Study 4", "target": "Diamine acetyltransferase 1 (Homo sapiens, UniProt P21673)", "action": "inhibitor", "concentration": "10 µM", "reference": "control", "Construct (P21673 1-171)": "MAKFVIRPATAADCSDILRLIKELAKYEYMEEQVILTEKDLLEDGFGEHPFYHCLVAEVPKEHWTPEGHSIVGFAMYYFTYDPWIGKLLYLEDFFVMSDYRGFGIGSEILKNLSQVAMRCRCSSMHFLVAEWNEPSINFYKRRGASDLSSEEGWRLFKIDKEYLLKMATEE"}
{"Structure (SMILES)": "OC1[C@@H](O)[C@H](O)OC[C@@H]1O (stereo in doubt)", "remaining activity [%]": 86.3}
{"Structure (SMILES)": "O=c1cc(-c2ccc(O)cc2)oc2c([C@@H]3O[C@H](CO)[C@@H](O[C@@H]4O[C@H](CO)[C@@H](O)[C@H](O)[C@H]4O)[C@H](O)[C@H]3O)c(O)cc(O)c12", "remaining activity [%]": 106}
{"Structure (SMILES)": "Oc1cc(O)c2c(c1)O[C@@H](c1cc(O)c(O)c(O)c1)[C@H](O)C2", "remaining activity [%]": 86.9}
{"Structure (SMILES)": "OC[C@H]1O[C@@](CO)(O[C@H]2O[C@H](CO)[C@@H](O)[C@H](O)[C@H]2O)[C@@H](O)[C@@H]1O", "remaining activity [%]": 84.3}
{"Structure (SMILES)": "CC(C)=CCc1c(O)ccc(C(=O)[C@@H]2[C@@H](c3c(O)cc(O)c4c(=O)c(CC=C(C)C)c(-c5ccc(O)cc5O)oc34)C=C(C)C[C@H]2c2ccc(O)cc2O)c1O", "remaining activity [%]": 104}
{"Structure (SMILES)": "CCCCCCCCCCCCCCCCCCCCO", "remaining activity [%]": 91.6}
{"Structure (SMILES)": "COc1ccc(-c2coc3cc(O)cc(O)c3c2=O)cc1", "remaining activity [%]": 78.8}
{"Structure (SMILES)": "O=C(O)CCc1ccccc1O", "remaining activity [%]": 96.6}
{"Structure (SMILES)": "CC1=C(/C=C/C(C)=C/C=C/C(C)=C/C=C/C=C(C)/C=C/C=C(C)/C=C/C2=C(C)CCCC2(C)C)C(C)(C)CCC1", "remaining activity [%]": 87}
{"Structure (SMILES)": "CCCCCCCCCCCCCCCCCCCCCCCCCCCCCCC", "remaining activity [%]": 109}
{"Structure (SMILES)": "COc1ccc2[nH]c(=O)oc2c1", "remaining activity [%]": 102}
{"Structure (SMILES)": "C=C1C(=O)O[C@H]2[C@H]1CC/C(C)=C/CC[C@@]1(C)O[C@@H]21", "remaining activity [%]": 101}
{"Structure (SMILES)": "c1ccc2[nH]ccc2c1", "remaining activity [%]": 114}
{"note": "Repeated from above (study 1):"}
{"Compound": "C[C@H](CCC(=O)O)[C@H]1CC[C@H]2[C@@H]3[C@@H](O)C[C@@H]4C[C@H](O)CC[C@]4(C)[C@H]3CC[C@]12C", "inhibition [%]": -26.3}
{"Compound": "CO[C@H]1O[C@@H]2O[C@@]3(C)CC[C@H]4[C@H](C)CC[C@@H]([C@H]1C)[C@@]24OO3", "inhibition [%]": 62}
{"Compound": "COc1ccc2c3c1O[C@H]1C[C@@H](O)C=C[C@@]31CCN(C)C2", "inhibition [%]": -22.2}
{"Compound": "COc1cc(C[C@@H](CO)[C@H](CO)Cc2ccc(O)c(OC)c2)ccc1O", "inhibition [%]": -23.6}
{"Compound": "CSc1ccc2c(c1)N(CCC1CCCCN1C)c1ccccc1S2 (stereo not shown)", "inhibition [%]": 37.7}
{"Compound": "O=c1[nH]c(=O)n(C2CCCO2)cc1F (stereo not shown)", "inhibition [%]": 4.5}
{"Compound": "O=c1ncc(F)c[nH]1", "inhibition [%]": 20.3}
{"Compound": "CC(C)C(=O)Nc1ccc([N+](=O)[O-])c(C(F)(F)F)c1", "inhibition [%]": -28.6}
